# Experimental data from different studies.
# Protocols differ between the studies behind these lines.
# Organism: Trypanosoma brucei
Compound,test,system,setting,how to read,endpoint,result
O=C(O)CN1C(=O)CNC2(CCCCCCC2)C1=O,parasite growth,,"pH 7.4, blood stage",,IC50,760 µM
Cc1cccc(-c2ccc3nc(NC(=O)C4CCCCC4)nn3c2)c1,parasite growth,,,,EC50,6.6 µM
Cc1cnc(CNC(=O)c2c(=O)c3ccc(N4CCCN(C)CC4)nc3n3c2sc2ccccc23)cn1,RNA-seq,Lister 427 bloodstream form,"2 x EC50, 4 h, log2 FC ±1, FDR 0.05",baseline: untreated,upregulated genes,43 genes
O=C(O)CN1C(=O)[C@@H](Cc2ccccc2)NC2(C1=O)C1CC3CC(C1)CC2C3 (stereo partly drawn),parasite growth,,"pH 7.4, blood stage",,IC50,171 µM
CCCCCC(=O)N[C@@H](Cc1ccc(N)cc1)C(=O)N[C@@H](CCCC)C(=O)N[C@@H](CC(C)C)C(=O)[C@@]1(C)CO1,"parasite growth, SYBR Green",,72 h,,EC50,0.228 µM
C[C@@H]1NC2(C(=O)N(CC(=O)O)C1=O)C1CC3CC(C1)CC2C3 (stereo partly drawn),parasite growth,,"pH 7.4, blood stage",,IC50,203 µM
Cc1ccc(Cn2cc(C(=O)N/N=C/c3ccc([N+](=O)[O-])o3)c(=O)c3ccc(Oc4ccccc4)cc32)cc1,"parasite growth, resazurin",,72 h,,EC50,0.21 µM
CCCCCC(=O)NC(CC(=O)N(CC)CC)C(=O)NC(Cc1ccc(F)cc1)C(=O)NC(Cc1ccc(F)cc1F)C(=O)C1(C)CO1 (stereo not drawn),"parasite growth, SYBR Green",,72 h,,EC50,0.039 µM
O=C1CNC2(CCCCCC2)C(=O)N1,parasite growth,,"pH 7.4, blood stage",,IC50,> 400 µM
CCCCCC(=O)N[C@@H](Cc1ccc(NC(=O)OC(C)(C)C)cc1)C(=O)N[C@@H](CCCC)C(=O)N[C@@H](CC(C)C)C(=O)[C@@]1(C)CO1,"parasite growth, SYBR Green",,72 h,,EC50,> 4 µM
C[n+]1cc(NC(=O)c2ccc3ccc4ccc(C(=O)Nc5cc6ccccc6[n+](C)c5)nc4c3n2)cc2ccccc21,RNA-seq,Lister 427 bloodstream form,"2 × EC50, 4 h",,unchanged G4-containing genes,703 genes
CCCCCC(=O)N[C@@H](Cc1ccc(NC(=O)OC(C)(C)C)cc1)C(=O)N[C@@H](CCCC)C(=O)N[C@@H](Cc1ccccc1)C(=O)[C@@]1(C)CO1,"parasite growth, SYBR Green",,72 h,,EC50,2.71 µM
O=C1NC(=O)C2(N[C@@H]1Cc1ccccc1)C1CC3CC(C1)CC2C3 (stereo partly drawn),parasite growth,,"pH 7.4, blood stage",,IC50,38.6 µM
CN(C)CCNC(=O)c1cccn2c(=O)c3cc4ccccc4cc3nc12,RNA-seq,Lister 427 bloodstream form,"2 × EC50, 4 h, log2 FC 1, FDR 0.05",baseline: untreated,downregulated genes,270 genes
CCCCCC(=O)N[C@H](C(=O)N[C@@H](CCS(C)(=O)=O)C(=O)N[C@@H](CC(C)C)C(=O)[C@@]1(C)CO1)C(C)C,"parasite growth, SYBR Green",,72 h,,EC50,0.031 µM

# A few entries again:
Compound,test,system,setting,how to read,endpoint,result
Cc1ccc(Cn2cc(C(=O)N/N=C/c3ccc([N+](=O)[O-])o3)c(=O)c3ccc(Oc4ccccc4)cc32)cc1,"parasite growth, resazurin",,72 h,,EC50,0.21 µM
CCCCCC(=O)N[C@@H](Cc1ccc(NC(=O)OC(C)(C)C)cc1)C(=O)N[C@@H](CCCC)C(=O)N[C@@H](CC(C)C)C(=O)[C@@]1(C)CO1,"parasite growth, SYBR Green",,72 h,,EC50,> 4 µM
